# Results gathered from unrelated publications.
# Numbered parts are unrelated; each lists some results of a single study.

# Set 1
# Target: Histone acetyltransferase KAT6A, both winged helices, GST fusion (KAT6A, Homo sapiens, UniProt Q92794, residues 1-181)
# Technique: protein binding microarray
# Form: double-stranded DNA, one strand shown
# Medium: in vitro
# Tested at: not given
# Setting: 8-mer, flanks averaged, mean of 2 arrays, mostly near background
# Reference: not given
# Reading: higher = stronger binding
# Construct (chain): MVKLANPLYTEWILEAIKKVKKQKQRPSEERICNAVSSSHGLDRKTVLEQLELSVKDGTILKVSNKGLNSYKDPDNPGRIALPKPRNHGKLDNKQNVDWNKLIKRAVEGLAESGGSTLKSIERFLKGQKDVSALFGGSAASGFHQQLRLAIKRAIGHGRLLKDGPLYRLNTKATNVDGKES
Sequence,E-score
GAATAGGA,0.0208
CTTCAGAC,0.0321
CCAAACCA,-0.117
CTGTTGCA,-0.0154
ACAGTGCG,0.158

# Set 2
# Target: Centromere-binding protein 1, full length, His-tagged (CBF1, Saccharomyces cerevisiae, UniProt P17106, residues 1-351)
# Sequence of UniProt P17106 (whole entry, looked up): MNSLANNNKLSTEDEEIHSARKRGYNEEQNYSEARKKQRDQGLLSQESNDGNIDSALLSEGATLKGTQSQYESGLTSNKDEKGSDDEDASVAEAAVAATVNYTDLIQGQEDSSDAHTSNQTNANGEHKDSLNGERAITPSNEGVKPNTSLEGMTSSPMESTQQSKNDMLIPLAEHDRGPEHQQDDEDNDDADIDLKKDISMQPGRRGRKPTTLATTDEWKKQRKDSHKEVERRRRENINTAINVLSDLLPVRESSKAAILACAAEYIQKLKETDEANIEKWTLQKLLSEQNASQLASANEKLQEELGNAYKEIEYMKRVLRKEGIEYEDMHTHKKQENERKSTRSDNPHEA
# Technique: competition protein-binding microarray
# Form: double-stranded DNA, one strand shown
# Medium: in vitro
# Tested at: 2 µM
# Setting: whole 60-bp probe, lowest competitor level
# Together with: Pho4 competitor, 0.05 µM
# Reading: higher = stronger binding
Sequence,fluorescence intensity [a.u.]
GGCAACCAAGTAAACTGCGTGGGTATCTTCAAGTCGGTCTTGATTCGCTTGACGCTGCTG,59.1
TGCGCAACAACTTGTCCAGTGGGTGTATGTCTAGAAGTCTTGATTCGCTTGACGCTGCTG,56
CGGGGTTAAGTTTGGGCAGTGGGTGGCTTGCAGCAGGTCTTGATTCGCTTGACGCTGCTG,77.1
TGCGCAACAACTTGTAACGTGGGTGTATGTCTAGAAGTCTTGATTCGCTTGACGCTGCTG,84.9
ATGTATTACCTAACTCAGGTGATGGAGTGCTCAGAGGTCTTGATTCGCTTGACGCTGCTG,94.4
TAGTGATTGTTGGATCATATGACTGTGGGAAAATAAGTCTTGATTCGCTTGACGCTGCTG,331
TCTCTGTTGCAATCTCACGTGAAAAAGTGGATTCGCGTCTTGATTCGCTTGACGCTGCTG,676

# Set 3
# Target: RNA binding protein fox-1 homolog 2, RRM domain, GST-SBP tag (RBFOX2, Homo sapiens, UniProt O43251-10, residues 100-194)
# Technique: RNA Bind-n-Seq
# Form: RNA
# Medium: in vitro
# Tested at: 365 nM
# Setting: natural RNA segment, single round, ends assumed
# Reference: no-protein control
# Reading: higher = stronger binding
# Residues (chain): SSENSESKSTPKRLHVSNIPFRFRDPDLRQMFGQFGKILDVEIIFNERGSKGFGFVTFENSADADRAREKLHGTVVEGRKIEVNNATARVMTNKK
Sequence,RBNS enrichment (R)
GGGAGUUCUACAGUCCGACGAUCCAAGGACACGUGCGCCUGCCUUCCCGCUCCCUCUCUCUCAGAGAUUGCCCUUUCUUCCCGAGGGCUGUGGGCCAGCGCUCCGAAGGAAGCAAUCAAGGGGAGAAAACACAUGGAAUUCUCGGGUGCCAA,0.436
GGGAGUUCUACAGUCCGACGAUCUUCCCUGCAGUAAUUGUAUGAUCUCACCCAGUGUGCAAUUUGUGAAAAUGAACCAAAUGUCAUUACUUUUGUCUUAAAGAAAAGUCUAUUUCAAGAAUAUGAACAGCAGUUGGAAUUCUCGGGUGCCAA,0.495
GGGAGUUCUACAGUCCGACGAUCUGAGUCUUGGAAAACACCCCAAACCCGGAAAUGUGUGGGAAAAAGAAAACAAAAACUUUCCAAAUUCCACCAGUCCUGUGUAGUUUGUUCGGGGUGGGUGCUCUCAGUGGUGGAAUUCUCGGGUGCCAA,1.21
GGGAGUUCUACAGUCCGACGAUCACGGGUUCUCACCCCUGACUUCUGGAGGCUUCCCUUGAAGCUCUGUGCAAAAGGUGGGAGACAGAGCUGGACCUGCAGGGGUGGUCCCGCCACAACCCUGCGUGUGGACCUGGAAUUCUCGGGUGCCAA,0.249
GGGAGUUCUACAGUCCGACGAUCGAAGAUUGGCUUGAAUUAGAUCAUAAUCAUGUGUGAUCCCAUCAUGAAUUCAUUGGAAUUUGUGUUGCAUGUAAGGCAAUCUUUCCUGUUGUAAAUCUUCCUUUUUUAAUUGGAAUUCUCGGGUGCCAA,2.94

# Single results of other studies
Molecule,target,test,system,conditions,how to read,quantity,value
"PhoQ, residues 284 288 289 292 302 303 SSYNSA","PhoP, residues 12 14 15 18 19 AGCRL (Escherichia coli, UniProt P23836)","Sort-seq, refers to: YFP reporter",E. coli,"PhoQ-PhoP variant library, together with: 10 µM Mg2+","reference: high Mg2+ state, higher = stronger signaling",fold induction,6.61

# Some of these lines once more (set 2):
Sequence,fluorescence intensity [a.u.]
TCTCTGTTGCAATCTCACGTGAAAAAGTGGATTCGCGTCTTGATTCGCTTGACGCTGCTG,676
ATGTATTACCTAACTCAGGTGATGGAGTGCTCAGAGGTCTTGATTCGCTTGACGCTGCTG,94.4
